# Experimental data gathered from unrelated publications.
# Lines come from different studies, so protocols differ. Numbers after ± are the reported error.
# AHR: Aryl hydrocarbon receptor (AHR, Delphinapterus leucas, UniProt Q95LD9)
# Sequence of UniProt Q95LD9 (whole entry, looked up): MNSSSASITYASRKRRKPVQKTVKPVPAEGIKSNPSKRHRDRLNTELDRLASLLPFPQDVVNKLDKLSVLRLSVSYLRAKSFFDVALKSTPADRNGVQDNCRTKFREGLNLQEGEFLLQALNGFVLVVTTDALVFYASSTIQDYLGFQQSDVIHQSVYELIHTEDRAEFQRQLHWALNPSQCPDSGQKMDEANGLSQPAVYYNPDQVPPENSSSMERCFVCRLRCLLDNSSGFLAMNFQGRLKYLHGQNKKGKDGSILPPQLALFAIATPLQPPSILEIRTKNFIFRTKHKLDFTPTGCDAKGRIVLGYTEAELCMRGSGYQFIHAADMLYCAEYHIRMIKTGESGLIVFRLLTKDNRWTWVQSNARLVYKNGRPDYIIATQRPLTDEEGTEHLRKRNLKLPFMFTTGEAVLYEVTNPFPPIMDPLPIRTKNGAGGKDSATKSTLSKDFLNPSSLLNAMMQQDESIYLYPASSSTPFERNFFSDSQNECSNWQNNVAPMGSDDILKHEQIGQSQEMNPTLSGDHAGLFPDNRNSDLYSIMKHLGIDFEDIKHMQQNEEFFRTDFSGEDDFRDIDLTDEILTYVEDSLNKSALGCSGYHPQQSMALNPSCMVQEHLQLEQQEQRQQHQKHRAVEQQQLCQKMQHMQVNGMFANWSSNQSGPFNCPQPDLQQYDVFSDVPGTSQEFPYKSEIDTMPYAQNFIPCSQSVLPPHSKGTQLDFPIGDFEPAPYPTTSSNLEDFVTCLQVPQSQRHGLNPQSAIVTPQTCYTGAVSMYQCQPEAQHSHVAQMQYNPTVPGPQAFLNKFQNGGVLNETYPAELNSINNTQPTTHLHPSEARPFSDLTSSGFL
# ABCB1: ATP-dependent translocase ABCB1 (ABCB1, Homo sapiens, UniProt P08183)
# Sequence of UniProt P08183 (whole entry, looked up): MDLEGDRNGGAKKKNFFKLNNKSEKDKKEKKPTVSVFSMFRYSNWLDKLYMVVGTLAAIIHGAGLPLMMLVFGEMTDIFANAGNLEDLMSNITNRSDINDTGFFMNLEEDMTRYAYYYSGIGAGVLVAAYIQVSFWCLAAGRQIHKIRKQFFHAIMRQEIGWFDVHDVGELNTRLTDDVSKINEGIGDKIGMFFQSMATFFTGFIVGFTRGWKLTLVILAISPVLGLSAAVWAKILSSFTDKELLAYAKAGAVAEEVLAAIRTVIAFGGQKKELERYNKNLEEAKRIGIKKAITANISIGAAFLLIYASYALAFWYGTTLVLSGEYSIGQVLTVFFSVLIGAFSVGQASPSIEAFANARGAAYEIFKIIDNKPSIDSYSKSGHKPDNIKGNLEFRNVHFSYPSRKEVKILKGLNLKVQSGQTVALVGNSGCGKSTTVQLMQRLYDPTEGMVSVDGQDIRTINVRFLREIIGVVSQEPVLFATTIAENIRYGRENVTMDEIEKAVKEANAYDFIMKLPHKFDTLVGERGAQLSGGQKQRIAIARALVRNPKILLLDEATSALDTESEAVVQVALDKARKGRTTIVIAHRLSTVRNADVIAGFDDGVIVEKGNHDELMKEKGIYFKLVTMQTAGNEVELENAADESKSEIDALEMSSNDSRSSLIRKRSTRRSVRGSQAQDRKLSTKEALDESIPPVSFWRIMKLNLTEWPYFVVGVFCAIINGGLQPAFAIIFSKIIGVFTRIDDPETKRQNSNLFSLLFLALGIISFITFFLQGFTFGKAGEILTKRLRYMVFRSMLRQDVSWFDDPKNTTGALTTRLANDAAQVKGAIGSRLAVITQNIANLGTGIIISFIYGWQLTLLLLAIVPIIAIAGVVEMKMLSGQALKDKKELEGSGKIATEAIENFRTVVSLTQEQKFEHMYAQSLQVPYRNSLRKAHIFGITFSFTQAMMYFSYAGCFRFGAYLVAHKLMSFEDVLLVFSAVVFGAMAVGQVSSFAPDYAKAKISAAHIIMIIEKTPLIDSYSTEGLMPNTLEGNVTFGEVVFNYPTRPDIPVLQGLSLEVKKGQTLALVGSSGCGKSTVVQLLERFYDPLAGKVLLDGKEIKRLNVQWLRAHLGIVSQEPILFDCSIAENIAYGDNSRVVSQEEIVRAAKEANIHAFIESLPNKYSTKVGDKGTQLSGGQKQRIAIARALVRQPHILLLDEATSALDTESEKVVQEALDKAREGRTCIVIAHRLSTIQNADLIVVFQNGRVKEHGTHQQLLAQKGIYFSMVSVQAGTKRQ
# Cytochrome P450 2A13: Cytochrome P450 2A13 (Homo sapiens, UniProt Q16696)
# Sequence of UniProt Q16696 (whole entry, looked up): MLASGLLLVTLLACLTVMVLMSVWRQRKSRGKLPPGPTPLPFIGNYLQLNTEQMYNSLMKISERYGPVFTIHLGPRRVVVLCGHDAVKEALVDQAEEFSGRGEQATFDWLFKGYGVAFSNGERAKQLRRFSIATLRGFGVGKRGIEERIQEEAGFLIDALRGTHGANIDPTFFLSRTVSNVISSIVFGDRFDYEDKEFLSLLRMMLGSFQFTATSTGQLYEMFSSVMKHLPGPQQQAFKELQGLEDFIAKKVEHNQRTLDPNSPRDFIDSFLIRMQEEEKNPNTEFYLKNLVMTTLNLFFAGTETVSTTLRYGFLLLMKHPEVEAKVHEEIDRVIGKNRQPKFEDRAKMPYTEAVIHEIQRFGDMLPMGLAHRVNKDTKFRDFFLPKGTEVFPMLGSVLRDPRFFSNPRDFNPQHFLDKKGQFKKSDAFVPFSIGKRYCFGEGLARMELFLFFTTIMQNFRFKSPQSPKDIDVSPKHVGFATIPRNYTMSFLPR
# CYP2E1: CYP2E1 (Oryctolagus cuniculus, UniProt P08682)
# Sequence of UniProt P08682 (whole entry, looked up): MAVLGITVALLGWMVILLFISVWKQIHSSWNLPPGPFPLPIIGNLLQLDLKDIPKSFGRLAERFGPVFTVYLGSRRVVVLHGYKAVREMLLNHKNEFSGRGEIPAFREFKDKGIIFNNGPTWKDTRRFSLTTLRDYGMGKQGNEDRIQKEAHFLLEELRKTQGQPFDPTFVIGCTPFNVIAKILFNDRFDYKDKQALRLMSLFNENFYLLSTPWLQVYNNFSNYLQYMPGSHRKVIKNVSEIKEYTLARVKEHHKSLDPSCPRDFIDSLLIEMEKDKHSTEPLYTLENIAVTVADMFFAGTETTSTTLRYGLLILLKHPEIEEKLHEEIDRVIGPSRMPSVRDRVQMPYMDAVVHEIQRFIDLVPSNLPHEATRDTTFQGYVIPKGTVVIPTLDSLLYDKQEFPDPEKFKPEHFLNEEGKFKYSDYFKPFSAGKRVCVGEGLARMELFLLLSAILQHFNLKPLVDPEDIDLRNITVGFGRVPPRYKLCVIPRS
# CYP2C9: Cytochrome P450 2C9 (CYP2C9, Homo sapiens, UniProt P11712)
# Sequence of UniProt P11712 (whole entry, looked up): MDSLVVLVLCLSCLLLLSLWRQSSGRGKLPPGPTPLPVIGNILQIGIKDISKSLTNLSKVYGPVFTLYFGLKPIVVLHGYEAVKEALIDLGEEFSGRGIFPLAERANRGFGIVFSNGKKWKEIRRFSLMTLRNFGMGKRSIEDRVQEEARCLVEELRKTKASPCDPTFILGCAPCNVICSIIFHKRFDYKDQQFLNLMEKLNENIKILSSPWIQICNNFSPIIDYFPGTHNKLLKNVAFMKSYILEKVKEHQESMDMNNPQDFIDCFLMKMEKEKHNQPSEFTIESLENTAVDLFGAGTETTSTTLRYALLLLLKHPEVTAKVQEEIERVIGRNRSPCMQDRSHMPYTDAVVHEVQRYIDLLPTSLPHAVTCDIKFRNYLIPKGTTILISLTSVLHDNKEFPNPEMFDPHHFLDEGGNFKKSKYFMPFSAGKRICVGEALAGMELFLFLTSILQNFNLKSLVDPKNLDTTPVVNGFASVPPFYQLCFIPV
# NR1I2: Nuclear receptor subfamily 1 group I member 2 (NR1I2, Homo sapiens, UniProt O75469)
# Sequence of UniProt O75469 (whole entry, looked up): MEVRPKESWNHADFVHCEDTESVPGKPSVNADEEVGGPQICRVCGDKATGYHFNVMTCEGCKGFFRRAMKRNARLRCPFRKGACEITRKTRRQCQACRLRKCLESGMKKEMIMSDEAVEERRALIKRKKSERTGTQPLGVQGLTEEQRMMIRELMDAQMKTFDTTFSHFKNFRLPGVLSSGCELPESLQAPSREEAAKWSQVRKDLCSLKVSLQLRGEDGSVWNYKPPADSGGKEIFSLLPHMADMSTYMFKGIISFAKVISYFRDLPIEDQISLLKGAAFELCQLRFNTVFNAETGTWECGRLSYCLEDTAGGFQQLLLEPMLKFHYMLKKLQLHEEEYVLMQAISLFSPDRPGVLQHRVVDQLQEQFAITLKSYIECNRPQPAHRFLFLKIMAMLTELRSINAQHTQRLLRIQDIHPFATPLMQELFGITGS
# CYP2A6: Cytochrome P450 2A6 (CYP2A6, Homo sapiens, UniProt P11509)
# Sequence of UniProt P11509 (whole entry, looked up): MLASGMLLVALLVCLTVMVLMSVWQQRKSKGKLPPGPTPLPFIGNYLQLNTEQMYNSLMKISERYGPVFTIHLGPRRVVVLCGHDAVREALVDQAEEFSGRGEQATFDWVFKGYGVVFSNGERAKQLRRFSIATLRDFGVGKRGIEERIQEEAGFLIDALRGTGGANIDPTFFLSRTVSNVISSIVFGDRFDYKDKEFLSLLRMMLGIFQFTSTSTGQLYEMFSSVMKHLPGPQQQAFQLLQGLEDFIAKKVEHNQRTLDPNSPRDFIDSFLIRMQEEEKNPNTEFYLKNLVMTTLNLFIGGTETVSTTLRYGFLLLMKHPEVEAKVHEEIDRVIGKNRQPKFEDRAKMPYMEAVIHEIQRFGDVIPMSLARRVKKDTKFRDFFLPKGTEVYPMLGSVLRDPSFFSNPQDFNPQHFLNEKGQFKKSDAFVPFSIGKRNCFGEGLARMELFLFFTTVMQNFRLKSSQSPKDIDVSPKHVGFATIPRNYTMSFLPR
# Sequence of UniProt P05182 (whole entry, looked up): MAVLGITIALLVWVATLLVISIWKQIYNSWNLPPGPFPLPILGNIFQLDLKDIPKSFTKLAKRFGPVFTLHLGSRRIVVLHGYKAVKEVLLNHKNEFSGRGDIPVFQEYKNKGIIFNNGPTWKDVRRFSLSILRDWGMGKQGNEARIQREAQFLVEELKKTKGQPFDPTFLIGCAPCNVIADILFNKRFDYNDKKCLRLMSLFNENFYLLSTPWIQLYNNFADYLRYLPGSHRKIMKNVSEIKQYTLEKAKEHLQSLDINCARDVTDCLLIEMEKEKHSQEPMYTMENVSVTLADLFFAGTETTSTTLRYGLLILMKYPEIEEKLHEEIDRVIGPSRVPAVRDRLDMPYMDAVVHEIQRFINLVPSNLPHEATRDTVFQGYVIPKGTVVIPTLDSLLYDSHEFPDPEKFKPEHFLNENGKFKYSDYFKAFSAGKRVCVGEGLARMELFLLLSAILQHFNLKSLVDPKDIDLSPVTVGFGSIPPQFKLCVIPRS
SMILES,target,assay,test system,conditions,how to read,endpoint,result
OCCCCc1ccc2ccc3cccc4ccc1c2c34,"Cytochrome P450 3A4 (CYP3A4, Homo sapiens, UniProt P08684, F304W)",FRET titration by dilution,,"pH 7.4, F304W mutant, excess substrate, enzyme:substrate 1:6, with: HPCD 0.6 mg/mL",,Kd,5.4 ± 0.5 µM
Clc1ccc(-c2cc(Cl)c(Cl)c(Cl)c2)cc1Cl,AHR,"binding, competitor",,"in vitro expressed receptor, with: [3H]TCDD",,Ki,0.0016 µM
COc1ccc2c3c1O[C@H]1C[C@@H](OC(=O)CCCCCCCCC(=O)O[C@H]4C=C[C@@]56CCN(C)Cc7ccc(OC)c(c75)O[C@H]6C4)C=C[C@@]31CCN(C)C2,ABCB1,"doxorubicin accumulation, inhibitor, flow cytometry",MCF7/DX1,with: 3 µM doxorubicin,,IC50,0.5 ± 0.1 µM
COc1cc2c(c(OC)c1OC)-c1ccc(OC)c(=O)cc1[C@@H](NC(C)=O)CC2,ABCB1,"ATPase activity, substrate",membranes,with: ATP 1 mM,,Vmax,4 ± 0.2 nmol Pi/min/mg protein
C#CCOc1ccc(-c2ccc(OCC#C)cc2)cc1,Cytochrome P450 2A13,"binding, absorbance",,pH 7.4,,Kd,6.5 µM
c1c[nH]nn1,CYP2E1,spectral titration,,"pH 7.4, 25 °C, first catalytic site",,Kd,330 µM
Clc1cc(Cl)c(-c2c(Cl)cc(Cl)c(Cl)c2Cl)c(Cl)c1,PXR (polar bear),"reporter gene, agonist, luciferase",COS-7,24 h,baseline: DMSO,fold induction,1.8 ± 0.6 fold
CNC(=O)Oc1cc(C)c(SC)c(C)c1,CYP2C9,inhibitor,human liver microsomes,"2 µM, pH 7.4, with: diclofenac",,inhibition,< 0%
Clc1cc(Cl)c(-c2ccc(Cl)c(Cl)c2Cl)cc1Cl,NR1I2,"reporter gene, agonist, luciferase",COS-7,24 h,baseline: DMSO,fold induction,1.1 ± 0.1 fold
C#CCOCCc1ccc2ccccc2c1,CYP2A6,"binding, absorbance",,pH 7.4,,Kd,19 µM
CC[C@H](C)[C@H](NC(=O)[C@H](CCCCN)NC(=O)[C@H](CCC(=O)O)NC(=O)[C@H](CCCCN)NC(=O)[C@H](CO)NC(=O)[C@H](CCCCN)NC(=O)[C@H](CCCNC(=N)N)NC(=O)[C@H](Cc1ccccc1)NC(=O)[C@H](Cc1ccccc1)NC(=O)[C@H](CC(=O)O)NC(=O)CNC(=O)[C@H](CC(C)C)NC(=O)[C@@H](N)CC(C)C)C(=O)NCC(=O)N[C@@H](CCCCN)C(=O)N[C@@H](CCC(=O)O)C(=O)N[C@@H](Cc1ccccc1)C(=O)N[C@@H](CCCCN)C(=O)N[C@@H](CCCNC(=N)N)C(=O)N[C@H](C(=O)N[C@H](C(=O)N[C@@H](CCC(N)=O)C(=O)N[C@@H](CCCNC(=N)N)C(=O)N[C@H](C(=O)N[C@@H](CCCCN)C(=O)N[C@@H](CC(=O)O)C(=O)N[C@@H](Cc1ccccc1)C(=O)N[C@@H](CC(C)C)C(=O)N[C@@H](CCCNC(=N)N)C(=O)N[C@@H](CC(N)=O)C(=O)N[C@@H](CC(C)C)C(=O)N[C@H](C(=O)N1CCC[C@H]1C(=O)N[C@@H](CCCNC(=N)N)C(=O)N[C@H](C(=O)N[C@@H](CCC(=O)O)C(=O)N[C@@H](CO)C(=O)O)[C@@H](C)O)C(C)C)[C@@H](C)CC)C(C)C)[C@@H](C)CC,Escherichia coli OmpT,substrate,"E. coli BL21 expressing ompT, PBS","2 µg/µL, room temperature",,time to cleavage,≤ 15 min
C#CCOc1ccc2ccccc2c1,Cytochrome P450 2A13,"binding, absorbance",,pH 7.4,,Kd,0.42 µM
Brc1ccc(Oc2ccc(Br)cc2Br)cc1,PXR (polar bear),"reporter gene, agonist, luciferase",COS-7,24 h,baseline: DMSO,fold induction,0.9 ± 0.2 fold
CSCC[C@H](NC=O)C(=O)N[C@@H](CC(C)C)C(=O)N[C@@H](Cc1ccccc1)C(=O)O,"Slc15a1 (Mus musculus, UniProt Q9JIP7)",substrate,"wild-type mouse, jejunum, in situ perfusion","0.1 µM to 7.5 mM, pH 6.5, intestinal wall concentration, with: phenylalanine 100 mM",,maximal transport rate,0.73 ± 0.07 nmol/cm²/s
Clc1ccc(-c2ccc(Cl)c(Cl)c2Cl)c(Cl)c1Cl,AHR,"binding, competitor",,"in vitro expressed receptor, with: [3H]TCDD",,Ki,0.384 µM
CC(C)c1nc(N(C)S(C)(=O)=O)nc(-c2ccc(F)cc2)c1/C=C/[C@@H](O)C[C@@H](O)CC(=O)O,OATP1B1/1B3,,"human, plasma","oral, 10 mg single dose, with: dabrafenib at dosing initiation",baseline: compound alone,AUC(0-inf) increase,22%
Clc1ccc(-c2ccc(Cl)c(Cl)c2)cc1Cl,AHR,"binding, competitor",,"in vitro expressed receptor, with: [3H]TCDD",,Ki,0.0078 µM
c1cn[nH]c1,CYP2E1,"binding, type II spectral titration",,"pH 7.4, 25 °C, second site",,Kd,6000 µM
N.N.O=C([O-])C1(C(=O)[O-])CCC1.[Pt+2],"P-glycoprotein (Canis lupus familiaris, UniProt C0KKU9)","rhodamine efflux, inhibitor",MDCK-MDR1 cells,"concentration not given, with: rhodamine 123 1 µM",baseline: rhodamine alone,rhodamine fluorescence ratio,1.1
Cc1ncccc1NC(=O)c1ccc2c(c1)CC[C@@H]1C[C@@](O)(C(F)(F)F)CC[C@@]21Cc1ccccc1,"CYP3A4/5, human","time-dependent inhibitor, item: 1'-hydroxymidazolam",pooled human liver microsomes,with: midazolam 23 µM,,kinact,~0.00367 s⁻¹
Clc1ccc(Cl)c(-c2cc(Cl)ccc2Cl)c1,NR1I2,"reporter gene, agonist, luciferase",COS-7,24 h,baseline: DMSO,fold induction,1.1 ± 0.2 fold
COC(=O)c1ccncc1,"Cytochrome P450 2E1 (Cyp2e1, Rattus norvegicus, UniProt P05182)","enzyme activity, inhibitor",liver microsomes,"10 min, 37 °C, with: chlorzoxazone",,Ki,2.5 µM
C#CCOCCc1cccc2ccccc12,CYP2A6,"binding, absorbance",,pH 7.4,,Kd,11.5 µM
"CCC1(c2ccccc2)NC(=O)N(Cc2ccccc2)C1=O (single isomer, unassigned; (+))",CYP (human),"THC M2 formation, inhibitor",human liver microsomes,"5 µM, with: THC 2 µM",,inhibition,no inhibition
N#Cc1ccnc(N2C(=O)CC[C@H]2C(=O)N(c2cncc(F)c2)[C@H](C(=O)NC2CC(F)(F)C2)c2ccccc2Cl)c1,"SLC22A6 (Homo sapiens, UniProt Q4U2R8)","p-aminohippurate uptake, inhibitor",HEK293 transfected with SLC22A6,"up to 65 µM, 1 min, with: [3H]-p-aminohippurate",,inhibition,< 50%
CC(C)(c1cc(Br)c(O)c(Br)c1)c1cc(Br)c(O)c(Br)c1,PXR (polar bear),"reporter gene, agonist, luciferase",COS-7,24 h,baseline: DMSO,fold induction,3.8 ± 0.5 fold
O=C(O)COc1ccc(C(=O)c2cccs2)c(Cl)c1Cl,CYP2C8 human,"M4 formation from THC, inhibitor",human liver microsomes,"50 µM, six individual donors, with: THC 2 µM",,inhibition,no effect
CSCC[C@H](NC(=O)[C@H](CCCCN)NC(=O)CCCCCNC(=O)[C@@H](N)CCCCNC(=O)CCCC[C@@H]1SC[C@@H]2NC(=O)N[C@@H]21)C(=O)N[C@H](C(=O)N[C@@H](Cc1ccccc1)C(=O)N[C@@H](CC(C)C)C(=O)N[C@@H](Cc1ccccc1)C(=O)N[C@H]1CSSC(C)(C)[C@@H](C(=O)N[C@@H](CCCCN)C(N)=O)NC(=O)[C@H](CC(=O)O)NC(=O)[C@H](CCCCN)NC(=O)[C@H](Cc2ccc(O)cc2)NC(=O)[C@H]([C@@H](C)O)NC(=O)[C@H](Cc2ccccc2)NC(=O)[C@H](CC(N)=O)NC1=O)[C@@H](C)O,"Chymotrypsinogen A (Bos taurus, UniProt P00766)","proteolytic stability, LC-MS",PBS,"0.5 mg/mL, up to 240 min, peptide to protease 50:1 by mass, with: Chymotrypsinogen A at 0.01 mg/mL",,half-life,5 min
Clc1cc(Cl)c(-c2cc(Cl)c(Cl)cc2Cl)cc1Cl,NR1I2,"reporter gene, agonist, luciferase",COS-7,24 h,baseline: DMSO,fold induction,3.2 ± 0.3 fold
CC(C)C[C@H](NC(=O)CNC(=O)[C@H](CC(C)C)NC(=O)[C@@H]1CCCN1C(=O)Cc1ccc2ccc3cccc4ccc1c2c34)C(=O)N[C@@H](CCCNC(=N)N)C(=O)N[C@@H](CO)C(=O)N[C@@H](CCCCN)C(=O)O,"MMP9 (Homo sapiens, UniProt P14780)","protease stability, substrate, HPLC",,"500 µM, 72 h, pH 7.5, 37 °C, with: MMP9 10 U",,residual substrate,not detected
Oc1cc(O)cc(/C=C/c2ccc(O)c(O)c2)c1,UGT1A10 human,"4'-O-glucuronide formation, substrate",,pH 7.4,,Km,14.1 ± 5.7 µM
COc1ccc(CCN2CCN(c3ccccc3OC)CC2)cc1OC.Cl,"CYP2C19 (Homo sapiens, UniProt P33261)",,purified human isozyme,"0.5 µM, 37 °C, with: NADPH 2 mM",,half-life,20 min
CSc1nc2cc(Cl)c(Oc3cccc(Cl)c3Cl)cc2[nH]1,CYP2C9,inhibitor,human liver microsomes,"2 µM, pH 7.4, with: diclofenac",,inhibition,74.4%
CC(=O)CC(c1ccccc1)c1c(O)c2cccc(O)c2oc1=O (centres unmarked),CYP2C9,"enzyme activity, inhibitor","human, liver microsomes",,,Ki,13 µM
CC(C)C=Cc1c(O)cc(/C=C/c2ccc(O)c(O)c2)cc1O,UGT1A7 human recombinant,"substrate, item: 3-glucuronide",,pH 7.4,,Km,54.4 ± 4.5 µM
Nc1ccncc1[18F],"Cytochrome P450 2E1 (Cyp2e1, Mus musculus, UniProt Q05421)",,"awake mice, brain","intravenous, 35 min, sesame oil vehicle pretreatment",,parent fraction,71.3 ± 5.2%
C[C@@H]1CC[C@]2(C(=O)O)CC[C@]3(C)C(=CC[C@@H]4[C@@]5(C)CC[C@H](O)[C@@](C)(CO)[C@@H]5CC[C@]43C)[C@@H]2[C@]1(C)O,CYP3A4/5,"midazolam 1'-hydroxylation, inhibitor, probe cocktail incubation",pooled human liver microsomes,"10 µM, 20 min, with: midazolam 1.535 µM",,remaining activity,88.2%
Oc1ccc(/C=C/c2cc(O)cc(O)c2)cc1,UGT1A10 human,"4'-O-glucuronide formation, substrate",,pH 7.4,,Km,300 ± 54 µM
Clc1ccc(-c2c(Cl)c(Cl)c(Cl)c(Cl)c2Cl)cc1Cl,PXR (polar bear),"reporter gene, agonist, luciferase",COS-7,24 h,baseline: DMSO,fold induction,1.8 ± 0.3 fold
C#CCOc1ccccc1-c1ccccc1,CYP2A6,"binding, absorbance",,pH 7.4,,Kd,15 µM
CC[N+]1=C(C=CC=CC=C2N(CCCCCC(=O)NCCN3C(=O)CC(SC[C@@H](NC(=O)[C@@H](CCCNC(=N)N)NC(=O)[C@@H](CCCNC(=N)N)NC(=O)[C@@H](CCCNC(=N)N)NC(=O)[C@@H](CCCNC(=N)N)NC(=O)[C@@H](CCCNC(=N)N)NC(=O)[C@@H](CCCNC(=N)N)NC(=O)[C@@H](CCCNC(=N)N)NC(=O)[C@@H](CCCNC(=N)N)NC(=O)[C@@H](CCCNC(=N)N)NC(=O)[C@H](CC(C)C)NC(=O)[C@H](CCCCN)NC(=O)[C@H](CC(C)C)NC(=O)[C@H](CCC(N)=O)NC(=O)[C@H](CC(C)C)NC(=O)[C@H](CCCNC(=N)N)NC(=O)CCCCCNC(=O)[C@@H](CCC(=O)O)NC(=O)[C@@H](CCC(=O)O)NC(=O)[C@@H](CCC(=O)O)NC(=O)[C@@H](CCC(=O)O)NC(=O)[C@@H](CCC(=O)O)NC(=O)[C@@H](CCC(=O)O)NC(=O)[C@@H](CCC(=O)O)NC(=O)[C@@H](CCC(=O)O)NC(=O)[C@H](N)CCC(=O)O)C(N)=O)C3=O)c3ccc(S(=O)(=O)O)cc3C2(C)C)C(C)(C)c2cc(S(=O)(=O)[O-])ccc21 (some centres unmarked),"Cathepsin G (CTSG, Homo sapiens, UniProt P08311)",substrate,,"5 µM, 2 h",,cleavage,60%
C#CCOc1ccc2c(C(F)(F)F)cc(=O)oc2c1,human CYP3A4,"enzyme inactivation, inactivator",reconstituted system,with: testosterone 6β-hydroxylation substrate,,KI,17 µM
C[C@]12CC[C@@H]3c4ccc(OS(=O)(=O)O)cc4CC[C@H]3[C@@H]1CCC2=O,"SLCO1A2 (Homo sapiens, UniProt P46721)",substrate,HEK293 overexpressing OATP1A2,,baseline: vector control,cellular uptake,increased
CC(=O)CC(c1ccccc1)c1c(O)c2cc(O)ccc2oc1=O (centres unmarked),CYP2C9,"enzyme activity, inhibitor","human, liver microsomes",,,Ki,167 µM
Brc1ccc(Oc2ccc(Br)cc2Br)c(Br)c1,PXR (polar bear),"reporter gene, agonist, luciferase",COS-7,24 h,baseline: DMSO,fold induction,1.5 ± 0.5 fold
C#CCOc1ccc(-c2ccccc2)cc1,Cytochrome P450 2A13,"binding, absorbance",,pH 7.4,,Kd,0.48 µM
C=C(C)[C@@H]1CCC(C)=C[C@H]1c1c(O)cc(CCCCC)cc1O,CYP2A6,"nicotine C-oxidation to cotinine, inhibitor",microsomes of overexpressing HEK293 cells,"10 µM, 30 min, pH 7.4, with: nicotine 100 µM",,inhibition,70%
